Results of several laboratories.
Each line is one published result; not all experiments were run side by side. ± gives the spread as reported.
UniProt P27695, sequence (whole entry, looked up): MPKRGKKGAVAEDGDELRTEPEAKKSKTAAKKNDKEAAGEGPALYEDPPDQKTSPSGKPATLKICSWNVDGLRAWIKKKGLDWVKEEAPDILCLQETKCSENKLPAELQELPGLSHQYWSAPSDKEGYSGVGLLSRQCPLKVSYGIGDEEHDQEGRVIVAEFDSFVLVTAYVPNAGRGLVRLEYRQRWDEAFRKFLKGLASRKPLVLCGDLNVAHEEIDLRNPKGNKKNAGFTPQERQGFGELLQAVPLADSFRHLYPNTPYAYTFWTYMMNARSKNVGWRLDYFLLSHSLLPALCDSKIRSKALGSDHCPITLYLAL
UniProt Q96T21, sequence (whole entry, looked up): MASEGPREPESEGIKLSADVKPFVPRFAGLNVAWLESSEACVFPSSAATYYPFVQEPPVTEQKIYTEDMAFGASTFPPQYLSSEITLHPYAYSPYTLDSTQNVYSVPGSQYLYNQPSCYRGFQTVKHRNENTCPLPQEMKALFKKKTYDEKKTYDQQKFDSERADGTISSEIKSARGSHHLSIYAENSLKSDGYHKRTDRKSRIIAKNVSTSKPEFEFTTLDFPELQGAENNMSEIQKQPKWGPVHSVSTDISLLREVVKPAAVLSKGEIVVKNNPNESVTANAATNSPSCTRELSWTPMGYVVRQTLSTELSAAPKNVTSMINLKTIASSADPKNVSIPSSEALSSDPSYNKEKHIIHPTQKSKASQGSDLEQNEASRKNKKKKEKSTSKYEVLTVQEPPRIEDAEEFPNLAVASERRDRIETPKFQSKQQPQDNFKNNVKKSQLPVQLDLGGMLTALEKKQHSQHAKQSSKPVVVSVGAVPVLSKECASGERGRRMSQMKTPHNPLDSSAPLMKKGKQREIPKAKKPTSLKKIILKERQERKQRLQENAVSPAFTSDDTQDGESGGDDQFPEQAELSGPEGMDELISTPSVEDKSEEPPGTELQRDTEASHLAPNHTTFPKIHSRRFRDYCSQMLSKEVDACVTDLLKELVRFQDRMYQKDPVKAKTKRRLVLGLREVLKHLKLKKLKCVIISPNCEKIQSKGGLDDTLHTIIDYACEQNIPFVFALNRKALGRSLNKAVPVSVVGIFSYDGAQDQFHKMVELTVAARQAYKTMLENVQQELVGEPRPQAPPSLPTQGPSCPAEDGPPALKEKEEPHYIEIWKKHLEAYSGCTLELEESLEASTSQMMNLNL
UniProt P19525, sequence (whole entry, unmodified, looked up): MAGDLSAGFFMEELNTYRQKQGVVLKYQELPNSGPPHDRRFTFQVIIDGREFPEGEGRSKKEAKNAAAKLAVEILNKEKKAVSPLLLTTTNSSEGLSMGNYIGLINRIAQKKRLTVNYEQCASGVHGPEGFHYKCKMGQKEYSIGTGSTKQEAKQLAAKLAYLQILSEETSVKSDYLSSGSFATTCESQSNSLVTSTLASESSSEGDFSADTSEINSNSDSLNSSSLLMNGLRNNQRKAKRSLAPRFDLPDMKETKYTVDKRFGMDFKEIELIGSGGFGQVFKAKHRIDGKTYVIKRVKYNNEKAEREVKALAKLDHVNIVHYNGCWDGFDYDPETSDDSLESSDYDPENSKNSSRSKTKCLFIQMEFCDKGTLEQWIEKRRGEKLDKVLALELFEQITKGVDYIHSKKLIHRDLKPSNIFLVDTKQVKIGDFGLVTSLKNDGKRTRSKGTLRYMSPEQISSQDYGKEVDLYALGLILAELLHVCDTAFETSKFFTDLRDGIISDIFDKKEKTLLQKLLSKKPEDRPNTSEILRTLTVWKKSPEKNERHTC
UniProt P04395, sequence (whole entry, looked up): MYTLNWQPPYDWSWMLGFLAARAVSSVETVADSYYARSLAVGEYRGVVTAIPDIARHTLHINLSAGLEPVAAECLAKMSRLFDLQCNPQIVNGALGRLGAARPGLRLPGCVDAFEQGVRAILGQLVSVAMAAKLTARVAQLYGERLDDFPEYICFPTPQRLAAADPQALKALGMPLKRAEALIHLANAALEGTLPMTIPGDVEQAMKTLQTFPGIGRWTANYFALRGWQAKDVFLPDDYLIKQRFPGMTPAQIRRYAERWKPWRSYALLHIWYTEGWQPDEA
UniProt Q9D0M2, sequence (whole entry, looked up): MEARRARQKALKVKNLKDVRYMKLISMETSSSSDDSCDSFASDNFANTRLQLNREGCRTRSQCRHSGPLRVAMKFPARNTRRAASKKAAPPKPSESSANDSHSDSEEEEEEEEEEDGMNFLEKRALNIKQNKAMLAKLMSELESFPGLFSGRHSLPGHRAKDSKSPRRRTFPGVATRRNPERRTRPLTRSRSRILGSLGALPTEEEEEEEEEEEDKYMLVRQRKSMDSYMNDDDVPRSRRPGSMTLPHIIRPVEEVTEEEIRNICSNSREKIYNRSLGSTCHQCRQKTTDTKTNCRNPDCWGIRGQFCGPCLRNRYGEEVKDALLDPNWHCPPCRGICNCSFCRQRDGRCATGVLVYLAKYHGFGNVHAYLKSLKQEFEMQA

`GACATGATTGCCCGATAGCATCCTACCTTCTCTCCATGCGTCAATTGTC (dsDNA; 49-mer duplex)` gave a Ki of 0.012 ± 0.002 µM (alkA 1-282 (Escherichia coli, UniProt P04395); competition; double-stranded DNA, one strand shown).
`GAAACGGGACGGCACCUCUUUUAACCCUUGAAGUCACUGCCCGUUUCGAGAGUUUCUCAACUCGAAUAACUAAAGCCAACGUGAACUUUUGCGGAUCUCCAGGAUCCGCUUUUUUUU (structured RNA)` — result for binding: “binds” (hfq full length assumed N48W (Escherichia coli, UniProt P0A6X3); tryptophan fluorescence quenching; folded RNA).
With `AGGGGTTACTGAGTAGTTACCAAAGCTTTTTAAGCAGTGAGTATTTACTAAGCCTGGGGG (dsDNA)` the K1/2 was 105 nM (ribK full length assumed (UniProt H2C8H2); fluorescence polarization; double-stranded DNA, one strand shown; together with: CTP 100 µM).
For `CTGACCTCATCATCTCCCTACACACTGACACTTACAATGTGGTCAGTT (dsDNA)`, the Kd was 0.0475 ± 0.0018 µM (protein holo R370Q/R371Q (Bacillus clausii, UniProt A0A268NVG2); fluorescence titration; double-stranded DNA, one strand shown; Mg2+ 5 mM, apparent, Hill fit, together with: PLP).
Under binding, `DNA 1 TGGCCAAAAAAGCATTGCTTATCAATTTGTTGCACC / DNA 2 TGGTGCAACAAATTGATAAGCAATGCTTTTTTGGCC (dsDNA; 5' T overhangs)` is recorded as “binds” (IHF alpha/IHF beta (Escherichia coli); fluorescence anisotropy; double-stranded DNA; 20 °C).
`CAAGTCCCTGTCGGTGAGGAACCGTTTGAC (DNA; hairpin)`: binding “binds” (Cdca7 241-382 (Mus musculus, UniProt Q9D0M2); EMSA; folded DNA).
For `CTGACCTCATCATTTTCTTAAAAACTGACACTTACAATGTGGTCAGTT (dsDNA)`, the Kd was 0.0165 ± 0.0007 µM (protein holo (Bacillus clausii, UniProt A0A268NVG2); fluorescence titration; double-stranded DNA, one strand shown; Mg2+ 5 mM, apparent, Hill fit, together with: PLP).
`RNA 1 GGAGGAUGUUAAUUGGCGUGUCUUGUCUGCAACGGUAUUC / RNA 2 GAAUACCGUUGCAGACAAGACACGCCAAUUAACAUCCUCC (dsRNA)` — result for binding: “binds” (EIF2AK2 1-185 F131W/Q110A (Homo sapiens, UniProt P19525); tryptophan fluorescence anisotropy; double-stranded RNA; 1 µM).
`CGGGGCGGGCCGGGGGCGGGGT (G-quadruplex DNA; parallel in K+)` has a Kd of 0.19 ± 0.05 µM (APEX1 full length assumed (Homo sapiens, UniProt P27695); fluorescence anisotropy; folded DNA; K+ 50 mM, without Mg2+, EDTA).
`CTGACCAAAACAAAAAATCTCCAAAAAACTCGAAAAAAGTGGTCAGTT (dsDNA)` has a Kd of 0.0388 ± 0.0032 µM (protein holo K360Q/R364Q (Bacillus clausii, UniProt A0A268NVG2); fluorescence titration; double-stranded DNA, one strand shown; Mg2+ 5 mM, apparent, Hill fit, together with: PLP).
For `UGGAGCCUUCCACCCCGGCACUCAUGACGGUCUGCCUGAAAACCAGCCCGCUGGUGGGGCAGUCCCGAGGACCUGGCGUGCAUCCCCGCCGGAGGAAGGUCCA (structured RNA)`, the Kd was 0.35 µM (SECISBP2 344-854 (Homo sapiens, UniProt Q96T21); EMSA; folded RNA).

For quick reference, copied from above:
`GAAACGGGACGGCACCUCUUUUAACCCUUGAAGUCACUGCCCGUUUCGAGAGUUUCUCAACUCGAAUAACUAAAGCCAACGUGAACUUUUGCGGAUCUCCAGGAUCCGCUUUUUUUU (structured RNA)` — result for binding: “binds” (hfq full length assumed N48W (Escherichia coli, UniProt P0A6X3); tryptophan fluorescence quenching; folded RNA).
